Measurements of several laboratories.
Every numbered part comes from another study and shows a few of its results, in no order.
UniProt P35626, sequence (whole entry, looked up): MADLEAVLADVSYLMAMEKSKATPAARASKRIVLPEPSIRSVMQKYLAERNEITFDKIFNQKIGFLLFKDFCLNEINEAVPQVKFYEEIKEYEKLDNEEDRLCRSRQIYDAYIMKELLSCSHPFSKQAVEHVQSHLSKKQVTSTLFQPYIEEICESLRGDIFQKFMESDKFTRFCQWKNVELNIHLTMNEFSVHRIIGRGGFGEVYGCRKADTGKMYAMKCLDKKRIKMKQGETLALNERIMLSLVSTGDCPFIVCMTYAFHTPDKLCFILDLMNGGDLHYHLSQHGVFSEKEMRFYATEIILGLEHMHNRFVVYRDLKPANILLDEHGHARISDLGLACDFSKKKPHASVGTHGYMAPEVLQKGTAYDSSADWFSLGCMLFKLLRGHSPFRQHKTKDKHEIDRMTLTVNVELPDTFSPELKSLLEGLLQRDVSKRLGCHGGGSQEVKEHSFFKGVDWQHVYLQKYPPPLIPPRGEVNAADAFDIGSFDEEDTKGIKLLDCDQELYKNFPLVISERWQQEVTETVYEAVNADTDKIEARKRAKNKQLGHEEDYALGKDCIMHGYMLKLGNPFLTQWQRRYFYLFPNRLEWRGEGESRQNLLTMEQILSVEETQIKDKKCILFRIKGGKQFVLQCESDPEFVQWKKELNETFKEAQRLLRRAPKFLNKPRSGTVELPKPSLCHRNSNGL
UniProt P37173, sequence (whole entry, looked up): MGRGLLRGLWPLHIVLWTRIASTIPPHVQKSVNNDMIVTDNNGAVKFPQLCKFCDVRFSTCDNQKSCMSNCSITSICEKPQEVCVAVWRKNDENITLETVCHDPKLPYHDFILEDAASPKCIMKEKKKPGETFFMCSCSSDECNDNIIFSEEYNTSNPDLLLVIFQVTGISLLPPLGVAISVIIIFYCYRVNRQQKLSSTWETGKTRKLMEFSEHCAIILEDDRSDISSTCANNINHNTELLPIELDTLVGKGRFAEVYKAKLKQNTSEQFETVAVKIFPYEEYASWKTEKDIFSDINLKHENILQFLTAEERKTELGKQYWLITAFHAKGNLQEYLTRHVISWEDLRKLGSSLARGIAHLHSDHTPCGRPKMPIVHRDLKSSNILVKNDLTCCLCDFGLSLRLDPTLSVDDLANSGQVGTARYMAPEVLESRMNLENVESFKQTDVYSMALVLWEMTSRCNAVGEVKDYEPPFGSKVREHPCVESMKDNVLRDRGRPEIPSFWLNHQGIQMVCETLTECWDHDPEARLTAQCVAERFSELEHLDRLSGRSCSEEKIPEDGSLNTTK
UniProt Q96RR4, sequence (whole entry, looked up): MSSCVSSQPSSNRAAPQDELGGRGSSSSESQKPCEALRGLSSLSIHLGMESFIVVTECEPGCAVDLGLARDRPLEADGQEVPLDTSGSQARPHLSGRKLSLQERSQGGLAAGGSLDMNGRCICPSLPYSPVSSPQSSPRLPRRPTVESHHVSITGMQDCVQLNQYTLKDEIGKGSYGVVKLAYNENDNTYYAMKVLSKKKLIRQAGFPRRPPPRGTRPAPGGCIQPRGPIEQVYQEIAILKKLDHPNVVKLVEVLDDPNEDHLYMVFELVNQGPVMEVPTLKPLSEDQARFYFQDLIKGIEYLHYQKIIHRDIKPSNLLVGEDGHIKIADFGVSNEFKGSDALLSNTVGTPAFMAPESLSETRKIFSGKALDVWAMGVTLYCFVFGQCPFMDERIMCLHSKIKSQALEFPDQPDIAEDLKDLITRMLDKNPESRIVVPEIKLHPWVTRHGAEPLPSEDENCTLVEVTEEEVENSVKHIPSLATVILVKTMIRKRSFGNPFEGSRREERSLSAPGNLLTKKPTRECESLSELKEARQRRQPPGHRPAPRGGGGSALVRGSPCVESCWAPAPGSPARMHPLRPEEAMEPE
UniProt Q13976, sequence (whole entry, looked up): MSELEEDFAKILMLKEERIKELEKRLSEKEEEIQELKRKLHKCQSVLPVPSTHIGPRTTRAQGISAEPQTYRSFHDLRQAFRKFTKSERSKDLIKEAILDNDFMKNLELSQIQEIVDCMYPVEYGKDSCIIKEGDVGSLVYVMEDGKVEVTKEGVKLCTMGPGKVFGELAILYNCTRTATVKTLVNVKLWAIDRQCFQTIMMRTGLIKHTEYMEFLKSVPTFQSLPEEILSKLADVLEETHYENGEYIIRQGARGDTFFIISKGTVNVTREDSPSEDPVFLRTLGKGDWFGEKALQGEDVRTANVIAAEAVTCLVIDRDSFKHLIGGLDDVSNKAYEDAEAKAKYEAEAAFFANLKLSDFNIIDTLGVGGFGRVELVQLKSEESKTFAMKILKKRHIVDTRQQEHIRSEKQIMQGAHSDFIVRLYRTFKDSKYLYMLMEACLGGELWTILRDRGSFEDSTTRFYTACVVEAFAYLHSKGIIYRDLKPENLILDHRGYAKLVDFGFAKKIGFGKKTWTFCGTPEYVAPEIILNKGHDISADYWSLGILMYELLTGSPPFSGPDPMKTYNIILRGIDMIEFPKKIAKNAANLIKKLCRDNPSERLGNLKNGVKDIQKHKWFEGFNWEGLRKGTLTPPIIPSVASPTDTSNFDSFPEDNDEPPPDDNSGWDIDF
UniProt P36897, sequence (whole entry, looked up): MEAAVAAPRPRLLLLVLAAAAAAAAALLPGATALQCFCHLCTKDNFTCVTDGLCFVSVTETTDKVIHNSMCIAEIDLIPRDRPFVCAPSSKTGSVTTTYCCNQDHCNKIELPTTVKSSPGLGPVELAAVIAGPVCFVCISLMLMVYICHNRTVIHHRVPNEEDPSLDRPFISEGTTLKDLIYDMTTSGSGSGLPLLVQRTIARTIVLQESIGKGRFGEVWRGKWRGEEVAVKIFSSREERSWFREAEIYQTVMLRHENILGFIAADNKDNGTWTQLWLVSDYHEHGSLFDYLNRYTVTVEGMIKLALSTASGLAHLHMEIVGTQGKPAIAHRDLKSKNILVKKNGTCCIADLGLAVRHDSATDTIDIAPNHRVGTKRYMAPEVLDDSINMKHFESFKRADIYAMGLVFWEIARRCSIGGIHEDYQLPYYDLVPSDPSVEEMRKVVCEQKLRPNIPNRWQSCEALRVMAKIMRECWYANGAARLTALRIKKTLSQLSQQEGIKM
UniProt P06241, sequence (whole entry, looked up): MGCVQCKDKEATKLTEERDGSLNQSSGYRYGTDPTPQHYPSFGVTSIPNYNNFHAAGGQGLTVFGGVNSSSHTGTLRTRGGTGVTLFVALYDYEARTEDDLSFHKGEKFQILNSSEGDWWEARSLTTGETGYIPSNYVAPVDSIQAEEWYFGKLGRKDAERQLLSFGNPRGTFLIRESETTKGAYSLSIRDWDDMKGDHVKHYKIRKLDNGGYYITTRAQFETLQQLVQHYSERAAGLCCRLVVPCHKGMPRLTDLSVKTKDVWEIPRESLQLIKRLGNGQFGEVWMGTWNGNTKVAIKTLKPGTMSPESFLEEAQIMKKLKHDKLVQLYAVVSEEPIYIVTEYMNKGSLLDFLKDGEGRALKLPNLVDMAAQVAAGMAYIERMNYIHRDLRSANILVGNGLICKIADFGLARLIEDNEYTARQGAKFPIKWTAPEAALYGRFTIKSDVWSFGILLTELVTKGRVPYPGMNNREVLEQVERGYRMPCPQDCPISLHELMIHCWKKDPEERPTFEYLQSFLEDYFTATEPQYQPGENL
UniProt Q00535, sequence (whole entry, looked up): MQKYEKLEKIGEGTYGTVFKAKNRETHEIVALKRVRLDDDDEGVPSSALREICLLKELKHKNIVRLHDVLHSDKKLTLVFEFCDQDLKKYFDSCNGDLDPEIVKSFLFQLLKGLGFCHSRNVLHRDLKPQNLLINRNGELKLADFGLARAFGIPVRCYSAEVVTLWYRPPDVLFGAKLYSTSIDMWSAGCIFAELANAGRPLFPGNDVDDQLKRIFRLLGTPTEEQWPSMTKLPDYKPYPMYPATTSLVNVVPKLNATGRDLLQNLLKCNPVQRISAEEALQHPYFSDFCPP
UniProt P51617, sequence (whole entry, looked up): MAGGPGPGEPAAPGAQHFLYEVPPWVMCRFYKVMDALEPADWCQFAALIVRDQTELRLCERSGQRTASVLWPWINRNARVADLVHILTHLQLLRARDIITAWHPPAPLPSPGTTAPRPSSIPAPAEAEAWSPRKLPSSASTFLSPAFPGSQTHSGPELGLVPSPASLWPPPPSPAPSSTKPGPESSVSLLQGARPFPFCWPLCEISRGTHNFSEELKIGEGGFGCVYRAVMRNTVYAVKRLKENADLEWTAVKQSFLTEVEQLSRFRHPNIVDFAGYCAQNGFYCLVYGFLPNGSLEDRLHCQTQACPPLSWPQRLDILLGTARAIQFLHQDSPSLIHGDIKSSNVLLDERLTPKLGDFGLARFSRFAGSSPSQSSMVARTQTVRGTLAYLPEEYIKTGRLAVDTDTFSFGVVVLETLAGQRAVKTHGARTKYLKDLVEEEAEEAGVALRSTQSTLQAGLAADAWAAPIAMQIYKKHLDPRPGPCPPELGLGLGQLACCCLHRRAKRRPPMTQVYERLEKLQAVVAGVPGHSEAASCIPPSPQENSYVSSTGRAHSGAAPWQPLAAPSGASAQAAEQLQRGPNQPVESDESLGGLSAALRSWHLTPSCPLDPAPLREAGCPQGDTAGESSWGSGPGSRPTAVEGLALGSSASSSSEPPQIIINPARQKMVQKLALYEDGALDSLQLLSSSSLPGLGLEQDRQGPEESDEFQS
UniProt Q15831, sequence (whole entry, looked up): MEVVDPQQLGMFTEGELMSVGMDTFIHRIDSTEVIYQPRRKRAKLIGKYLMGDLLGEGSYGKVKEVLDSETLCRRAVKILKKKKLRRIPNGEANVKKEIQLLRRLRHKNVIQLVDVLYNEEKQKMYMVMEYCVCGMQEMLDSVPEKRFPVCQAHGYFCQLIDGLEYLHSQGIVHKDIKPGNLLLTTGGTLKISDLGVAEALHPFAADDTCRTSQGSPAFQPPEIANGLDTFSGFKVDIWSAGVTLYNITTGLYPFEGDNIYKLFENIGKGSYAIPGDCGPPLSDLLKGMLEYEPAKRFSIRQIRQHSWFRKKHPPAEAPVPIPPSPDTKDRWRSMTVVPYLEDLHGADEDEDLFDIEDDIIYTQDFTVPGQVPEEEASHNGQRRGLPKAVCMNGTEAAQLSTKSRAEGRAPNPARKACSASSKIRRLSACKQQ

Study 1 — SMILES: CC(C)(O)c1cncc(-c2nc3ccc(F)cc3n2C2CC2)c1; technique: competition with immobilised ligand; concentration: 1 µM
| target | test | remaining binding |
| --- | --- | --- |
| TSSK3 (Homo sapiens, UniProt Q96PN8) | cell-free assay | 84% |
| TAOK2 (Homo sapiens, UniProt Q9UL54) | cell-free assay | 100% |
| NIM1K (Homo sapiens, UniProt Q8IY84) | cell-free assay | 100% |
| IRAK1 (Homo sapiens, UniProt P51617) | cell-free assay | 100% |
| NEK1 (Homo sapiens, UniProt Q96PY6) | cell-free assay | 100% |
| Tyrosine-protein kinase ABL1, phosphorylated (ABL1, Homo sapiens, UniProt P00519, E255K) | binding | 100% |
| Tyrosine-protein kinase ABL1, phosphorylated (ABL1, Homo sapiens, UniProt P00519, F317L) | cell-free assay | 100% |
| MAP3K13 (Homo sapiens, UniProt O43283) | cell-free assay | 100% |
| PIK3CG (Homo sapiens, UniProt P48736) | cell-free assay | 77% |
| FYN (Homo sapiens, UniProt P06241) | cell-free assay | 100% |
| TIE1 (Homo sapiens, UniProt P35590) | cell-free assay | 100% |
| Tyrosine-protein kinase ABL1, phosphorylated (ABL1, Homo sapiens, UniProt P00519, T315I) | cell-free assay | 100% |
| ULK3 (Homo sapiens, UniProt Q6PHR2) | cell-free assay | 95% |
| AXL (Homo sapiens, UniProt P30530) | cell-free assay | 100% |
| MAST1 (Homo sapiens, UniProt Q9Y2H9) | cell-free assay | 100% |
| MTOR (Homo sapiens, UniProt P42345) | cell-free assay | 96% |
| PHKG2 (Homo sapiens, UniProt P15735) | cell-free assay | 100% |
| MST1R (Homo sapiens, UniProt Q04912) | cell-free assay | 100% |
| GRK7 (Homo sapiens, UniProt Q8WTQ7) | cell-free assay | 86% |
| CAMKK1 (Homo sapiens, UniProt Q8N5S9) | cell-free assay | 100% |
| GRK3 (Homo sapiens, UniProt P35626) | cell-free assay | 79% |
| PIM3 (Homo sapiens, UniProt Q86V86) | cell-free assay | 98% |
| TGFBR2 (Homo sapiens, UniProt P37173) | cell-free assay | 100% |
| HUNK (Homo sapiens, UniProt P57058) | cell-free assay | 100% |
| Tyrosine-protein kinase JAK2, JH1 (JAK2, Homo sapiens, UniProt O60674) | cell-free assay | 100% |

Study 2 — cell line: HaCaT; concentration: 100 µM; time: 60 h
| SMILES | viability [%] |
| --- | --- |
| CC(=O)Nc1ccc(CC(=O)O)cc1 | 160 |
| CN1CCC(=C2c3ccccc3CCn3c(C=O)cnc32)CC1 | 126 |
| COc1cc2c(cc1O)[C@@H](Cc1ccc(O)c(Oc3ccc(C[C@@H]4c5cc(OC)c(OC)cc5CCN4C)cc3)c1)N(C)CC2 | 22.2 |
| CCCCS(=O)(=O)N[C@@H](Cc1ccc(OCCCCC2CCNCC2)cc1)C(=O)O | 115 |

Study 3 — action: inhibitor; concentration: 10 µM; reference: control
Target: Diamine acetyltransferase 1 (Homo sapiens, UniProt P21673)
Target sequence (P21673 1-171): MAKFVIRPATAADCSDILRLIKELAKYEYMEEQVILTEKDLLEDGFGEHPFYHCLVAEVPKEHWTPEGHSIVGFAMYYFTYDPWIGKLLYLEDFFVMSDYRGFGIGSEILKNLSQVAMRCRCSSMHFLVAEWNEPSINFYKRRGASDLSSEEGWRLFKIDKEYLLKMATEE
| SMILES | remaining activity [%] |
| --- | --- |
| CCCCCCCCCCCCCC(=O)OC(C)C | 97.2 |
| COc1cc(O)c(C(C)=O)c(OC)c1 | 80.2 |
| COc1cc2oc(-c3ccc(O)cc3)cc(=O)c2c(O)c1[C@@H]1O[C@H](CO)[C@@H](O)[C@H](O)[C@H]1O[C@@H]1O[C@H](CO)[C@@H](O)[C@H](O)[C@H]1O | 91.3 |
| CC(C)=C[C@H]1C[C@](C)(O)[C@@H]2[C@H]3CC[C@@H]4[C@@]5(C)CC[C@H](O[C@@H]6OC[C@H](O)[C@H](O[C@@H]7O[C@H](CO[C@@H]8O[C@H](CO)[C@@H](O)[C@H](O)[C@H]8O)[C@@H](O)[C@H](O)[C@H]7O[C@@H]7OC[C@@H](O)[C@H](O)[C@H]7O)[C@H]6O[C@@H]6O[C@@H](C)[C@H](O)[C@@H](O)[C@H]6O)C(C)(C)[C@@H]5CC[C@@]4(C)[C@@]34CO[C@@]2(C4)O1 | 84.8 |
| NCCCC[C@H](N)C(=O)O | 97.9 |

Study 4 — observed: enzyme activity; action: inhibitor; concentration: 0.5 µM; reference: control
SMILES: O=C1Cc2c([nH]c3ccc([N+](=O)[O-])cc23)-c2ccccc2N1
| target | remaining activity |
| --- | --- |
| STK10 (Homo sapiens, UniProt O94804) | 80.4% |
| PRKACA (Homo sapiens, UniProt P17612) | 87.4% |
| Cyclin-dependent kinase 5, with p25 (CDK5, Homo sapiens, UniProt Q00535) | 10.5% |
| MAP3K3 (Homo sapiens, UniProt Q99759) | 100% |
| cGMP-dependent protein kinase 1, isoform beta (PRKG1, Homo sapiens, UniProt Q13976) | 96.8% |
| DAPK1 (Homo sapiens, UniProt P53355) | 104% |
| DAPK2 (Homo sapiens, UniProt Q9UIK4) | 97.2% |
| OXSR1 (Homo sapiens, UniProt O95747) | 97% |
| CHEK2 (Homo sapiens, UniProt O96017) | 7.9% |
| IKBKE (Homo sapiens, UniProt Q14164) | 93.4% |
| CAMKK2 (Homo sapiens, UniProt Q96RR4) | 79.5% |
| Tyrosine-protein kinase Lyn, isoform B (LYN, Homo sapiens, UniProt P07948) | 89.3% |
| PRKCA (Homo sapiens, UniProt P17252) | 59.9% |
| CAMK2D (Homo sapiens, UniProt Q13557) | 79.3% |
| IKBKB (Homo sapiens, UniProt O14920) | 102% |
| GRK3 (Homo sapiens, UniProt P35626) | 88.9% |
| STK39 (Homo sapiens, UniProt Q9UEW8) | 77.5% |
| STK11 (Homo sapiens, UniProt Q15831) | 90.2% |
| Protein kinase C beta type, isoform beta-I (PRKCB, Homo sapiens, UniProt P05771) | 105% |
| TGFBR2 (Homo sapiens, UniProt P37173) | 19.4% |
| MAPK9 (Homo sapiens, UniProt P45984) | 97.2% |
| TGFBR1 (Homo sapiens, UniProt P36897) | 103% |
